Measurements from different studies.
Protocols differ between the studies behind these lines. ± gives the spread as reported.
B1: UGT1A9 (Homo sapiens, UniProt O60656); chain GKLLVVPMDGSHWFTMRSVVEKLILRGHEVVVVMPEVSWQLGRSLNCTVKTYSTSYTLEDLDREFKAFAHAQWKAQVRSIYSLLMGSYNDIFDLFFSNCRSLFKDKKLVEYLKESSFDAVFLDPFDNCGLIVAKYFSLPSVVFARGILCHYLEEGAQCPAPLSYVPRILLGFSDAMTFKERVRNHIMHLEEHLLCHRFFKNALEIASEILQTPVTEYDLYSHTSIWLLRTDFVLDYPKPVMPNMIFIGGINCHQGKPLPMEFEAYINASGEHGIVVFSLGSMVSEIPEKKAMAIADALGKIPQTVLWRYTGTRPSNLANNTILVKWLPQNDLLGHPMTRAFITHAGSHGVYESICNGVPMVMMPLFGDQMDNAKRMETKGAGVTLNVLEMTSEDLENALKAVINDKSYKENIMRLSSLHKDRPVEPLDLAVFWVEFVMRHKGAPHLRPAAHDLTWYQYHSLDVIGFLLAVVLTVAFITFKCCAYGYRKCLGKKGRVKKAHKSKTH

With `insulin aspart` the AUC ratio was 99.7% (human, healthy; subcutaneous, 0.2 U/kg, 12 h; reference: reference insulin aspart (EU)).
`teriparatide` has a CL/F of 207 ± 83.2 L/h (ELISA; healthy women; sc, 20 µg single dose, reference product, arithmetic mean).
The pKa of `PRL (Homo sapiens, UniProt P01236)` is reported as 6 (NMR, item: His30; 35 °C, 25 mM NaCl, microscopic; neighbours unprotonated, numbering of the source).
For `ORF56 (Sulfolobus islandicus, UniProt Q54323)`, the pKa was 2.88 (NMR, item: Asp52; free native homodimer, low salt).
The tissue uptake of `CSCC[C@H](NC(=O)[C@H](CC(C)C)NC(=O)[C@H](Cc1c[nH]cn1)NC(=O)CNC(=O)[C@@H](NC(=O)[C@H](C)NC(=O)[C@H](Cc1c[nH]c2ccccc12)NC(=O)[C@H](CCC(N)=O)NC(=O)CCCCCNC(=O)[C@H](CCC(=O)NCCCC[C@@H]1NC(=O)[C@@H](Cc2ccc(O)cc2)NC(=O)[C@H](CC(=O)O)NC(=O)CNC(=O)[C@H](CCCNC(=N)N)NC1=O)NC(=O)CN1CCN(CC(=O)O)CCN(CC(=O)O)CC1)C(C)C)C(N)=O` [copper-64 labelled] is reported as 1.2 ± 0.36 %ID/g (ICR SCID mouse, female, kidneys; intravenous, 750 kBq, 24 h).
`CRYGD (Homo sapiens, UniProt P07320)` gave a pKa of 6.07 (NMR, item: His83; 25 °C, numbering of the source).
The CL/F ratio of `insulin degludec` is reported as 1.23 (human, end-stage renal disease; reference: before over after dialysis).
`ksi D40A/D103N (Pseudomonas putida)` has a pKa of 8.3 (UV-vis, item: Tyr57; 25 °C).
`B1 (UGT1A9)` gave a Vmax of 0.00444 µmol/min/mg (CC(=O)c1ccc(O)cc1; steady-state kinetics; pH 7.4, 37 °C).
With `Insulin human` the brain concentration was 32.2 ± 13.4 pg/mg tissue (rat, thalamus/hypothalamus; intranasal, 20 µg per nostril, 360 min).
`N=C(N)NCCC[C@@H]1NC(=O)[C@H](CSC2CC(=O)N(CCNC(=O)CN3CCN(CC(=O)O)CCN(CC(=O)O)CCN(CC(=O)O)CC3)C2=O)NC(=O)[C@H](CCCCN)NC(=O)[C@@H](Cc2ccc(O)cc2)NC(=O)[C@H](CC(=O)O)NC(=O)CNC1=O` (stereo partly drawn) [gallium-68 labelled] — result for “elimination rate constant”: 0.02 ± 0.01 min⁻¹ (ICR mouse, female, blood; intravenous, 5 MBq, 1 to 120 min, two-compartment model).
With `Cc1cc(-c2ccc(NC(=O)[C@H](CCCCNC(=O)CCN3C(=O)CC(SCC(=O)N[C@H](Cc4ccccc4)C(=O)N[C@H]4CSSC[C@@H](C(=O)N[C@H](C(=O)O)[C@@H](C)O)NC(=O)[C@H]([C@@H](C)O)NC(=O)[C@H](CCCCN)NC(=O)[C@@H](Cc5c[nH]c6ccccc56)NC(=O)[C@H](Cc5ccc(O)cc5)NC4=O)C3=O)NC(=O)CN3CCN(CC(=O)O)CCN(CC(=O)O)CCN(CC(=O)O)CC3)c(C)c2)ccc1N=Nc1ccc2c(S(=O)(=O)O)cc(S(=O)(=O)O)c(N)c2c1O` (stereo partly drawn) [yttrium-86 labelled] the tumour uptake was 60.5 ± 8.03 %ID/g (PET; female athymic nude mice, AR-42J xenograft, AR-42J tumour; intravenous, 0.92 MBq, 4 nmol, 24 h).
`ksi Y32A/D40R/F56A/D103A (Pseudomonas putida)` has a pKa of over 10 (UV-vis, item: Tyr57; 25 °C).
`proteorhodopsin, retinal (uncultured gamma-proteobacterium EBAC31A08, UniProt Q9F7P4)` has a pKa of 6.8 (UV-vis, item: Asp97; NaCl 100 mM, detergent-solubilised).
For `COc1cccc2c1C(=O)c1c(O)c3c(c(O)c1C2=O)C[C@@](O)(C(=O)CO)C[C@@H]3O[C@H]1C[C@H](NC(=O)[C@@H]2CCCN2C(=O)CNC(=O)[C@@H](N)CC(C)C)[C@H](O)[C@H](C)O1`, the Tmax was 5 min (mouse, E0771 tumour-bearing, plasma; intravenous, 92 µmol/kg PhAc-ALGP-Dox).
The AUC of `insulin aspart` is reported as 562 ± 85 ng·h/mL (LC-MS/MS; healthy humans, plasma; subcutaneous, 0.2 IU/kg, 0 to 8 h, before propensity score matching).
The tissue uptake of `CC(C)[C@H](NC(=O)[C@@H]1CCCN1C(=O)[C@H](CCCNC(=N)N)NC(=O)[C@H](CS)NC(=O)[C@H](Cc1c[nH]c2ccccc12)NC(=O)[C@H](CCCNC(=N)N)NC(=O)[C@@H](Cc1ccccc1)NC(=O)[C@H](Cc1c[nH]cn1)NC(=O)[C@H](CCC(=O)O)NC(=O)[C@H](CS)NC(=O)[C@H](CS)NC(=O)[C@H](CCCCN)NC(=O)[C@@H]1CC(=O)N[C@@H](CCCNC(=N)N)C(=O)N[C@@H](C)C(=O)N[C@@H](CC(=O)O)C(=O)N[C@H](Cc2ccc(O)cc2)C(=O)N1)C(N)=O` [technetium-99m labelled] is reported as 0.02 ± 0.07 %ID/g (C57 mice, pancreas; intravenous, 0.037 MBq, 24 h).
`insulin glulisine`: “subjects with hypoglycaemia” 36.1% (obese type 2 diabetes patients; subcutaneous, 0.2 U/kg, glucose below 70 mg/dL).
For `ksi Y32F/D40R/F56A/D103A (Pseudomonas putida)`, the pKa was over 10 (UV-vis, item: Tyr57; 25 °C).
For `ACEEQNPWARYLEWLFPTETLLLEL`, the contrast index was 3 (ex vivo fluorescence; peptide, BALB/c mouse, 4T1 mammary tumour, tumour vs muscle; 2 h; reference: tumour over muscle).
`ksi D40A (Pseudomonas putida)` gave a pKa of 7.1 (UV-vis, item: Tyr57; 25 °C).
For `insulin degludec`, “AUC mean estimate” read 0.0821 µM·h (ELISA; healthy human subjects, serum; subcutaneous, abdomen, 0.4 U/kg, 0 to 120 h).
With `COc1cccc2c1C(=O)c1c(O)c3c(c(O)c1C2=O)C[C@@](O)(C(=O)CO)C[C@@H]3O[C@H]1C[C@H](NC(=O)[C@@H]2CCCN2C(=O)CN)[C@H](O)[C@H](C)O1` the Tmax was 5 min (mouse, E0771 tumour-bearing, plasma; intravenous, 92 µmol/kg PhAc-ALGP-Dox).
With `insulin aspart` the ΔCmax was 81 ± 8 µU/mL (ELISA, item: plasma insulin; human, plasma; subcutaneous, 0.2 U/kg; reference: baseline).

Excerpt of the above:
With `insulin aspart` the AUC ratio was 99.7% (human, healthy; subcutaneous, 0.2 U/kg, 12 h; reference: reference insulin aspart (EU)).
`ksi Y32A/D40R/F56A/D103A (Pseudomonas putida)` has a pKa of over 10 (UV-vis, item: Tyr57; 25 °C).
For `ACEEQNPWARYLEWLFPTETLLLEL`, the contrast index was 3 (ex vivo fluorescence; peptide, BALB/c mouse, 4T1 mammary tumour, tumour vs muscle; 2 h; reference: tumour over muscle).
`B1 (UGT1A9)` gave a Vmax of 0.00444 µmol/min/mg (CC(=O)c1ccc(O)cc1; steady-state kinetics; pH 7.4, 37 °C).
